Measured values pooled from the literature.
Compare with care: the assays were run in different laboratories. Values joined by “and” are separate records of one study, mostly repeats; a detail may differ. Numbers after ± are the reported error.
Trypanothione synthetase: Trypanothione synthetase (Trypanosoma brucei brucei, UniProt Q8IEX1)
MAOA: Amine oxidase [flavin-containing] A (MAOA, Homo sapiens, UniProt P21397)
Chain of UniProt P21397 (whole entry, looked up): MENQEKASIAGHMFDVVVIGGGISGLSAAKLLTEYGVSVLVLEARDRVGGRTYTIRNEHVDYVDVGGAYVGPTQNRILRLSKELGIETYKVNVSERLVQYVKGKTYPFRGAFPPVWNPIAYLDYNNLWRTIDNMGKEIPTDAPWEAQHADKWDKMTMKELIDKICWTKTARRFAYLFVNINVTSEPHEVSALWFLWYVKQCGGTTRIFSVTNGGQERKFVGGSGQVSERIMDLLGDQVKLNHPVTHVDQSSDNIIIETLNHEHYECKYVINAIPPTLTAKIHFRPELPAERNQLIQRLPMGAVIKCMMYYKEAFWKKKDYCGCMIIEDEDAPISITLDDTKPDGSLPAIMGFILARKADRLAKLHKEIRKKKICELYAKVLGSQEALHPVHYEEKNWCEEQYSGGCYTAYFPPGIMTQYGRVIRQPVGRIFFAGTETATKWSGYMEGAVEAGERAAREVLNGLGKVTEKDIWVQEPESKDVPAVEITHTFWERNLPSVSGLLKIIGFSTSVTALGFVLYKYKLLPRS
FFAR4: Free fatty acid receptor 4 (FFAR4, Homo sapiens, UniProt Q5NUL3)
Chain of UniProt Q5NUL3 (whole entry, looked up): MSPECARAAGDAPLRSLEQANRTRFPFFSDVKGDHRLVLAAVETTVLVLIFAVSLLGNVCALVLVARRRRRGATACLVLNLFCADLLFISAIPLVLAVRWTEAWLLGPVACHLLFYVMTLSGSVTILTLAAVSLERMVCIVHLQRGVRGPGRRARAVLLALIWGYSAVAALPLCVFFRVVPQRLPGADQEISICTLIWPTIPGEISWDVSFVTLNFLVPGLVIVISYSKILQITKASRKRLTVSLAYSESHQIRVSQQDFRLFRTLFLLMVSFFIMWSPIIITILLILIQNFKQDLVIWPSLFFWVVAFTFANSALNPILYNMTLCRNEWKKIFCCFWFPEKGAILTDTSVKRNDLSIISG
Alpha-amylase: Alpha-amylase (Bos taurus, UniProt Q3MHH8)
Chain of UniProt Q96D96 (whole entry, looked up): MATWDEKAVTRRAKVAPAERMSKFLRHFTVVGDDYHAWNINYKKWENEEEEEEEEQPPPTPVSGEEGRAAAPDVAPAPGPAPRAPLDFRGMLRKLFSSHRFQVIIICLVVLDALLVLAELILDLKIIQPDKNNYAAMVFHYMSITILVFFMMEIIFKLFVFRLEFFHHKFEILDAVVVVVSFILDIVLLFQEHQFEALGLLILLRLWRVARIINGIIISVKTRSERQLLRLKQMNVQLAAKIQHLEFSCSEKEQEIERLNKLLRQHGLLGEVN
Chain of UniProt Q6W5P4 (whole entry, looked up): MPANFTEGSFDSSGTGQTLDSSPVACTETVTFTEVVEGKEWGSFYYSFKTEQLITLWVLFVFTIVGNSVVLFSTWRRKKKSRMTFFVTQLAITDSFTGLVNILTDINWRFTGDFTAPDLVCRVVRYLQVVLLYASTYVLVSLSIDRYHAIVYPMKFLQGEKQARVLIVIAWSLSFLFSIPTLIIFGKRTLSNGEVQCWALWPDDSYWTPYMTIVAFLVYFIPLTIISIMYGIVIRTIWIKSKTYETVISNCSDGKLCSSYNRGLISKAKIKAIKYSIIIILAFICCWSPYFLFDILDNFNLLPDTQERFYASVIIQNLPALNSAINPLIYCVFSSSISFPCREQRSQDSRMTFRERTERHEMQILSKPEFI
Chain of UniProt P51813 (whole entry, looked up): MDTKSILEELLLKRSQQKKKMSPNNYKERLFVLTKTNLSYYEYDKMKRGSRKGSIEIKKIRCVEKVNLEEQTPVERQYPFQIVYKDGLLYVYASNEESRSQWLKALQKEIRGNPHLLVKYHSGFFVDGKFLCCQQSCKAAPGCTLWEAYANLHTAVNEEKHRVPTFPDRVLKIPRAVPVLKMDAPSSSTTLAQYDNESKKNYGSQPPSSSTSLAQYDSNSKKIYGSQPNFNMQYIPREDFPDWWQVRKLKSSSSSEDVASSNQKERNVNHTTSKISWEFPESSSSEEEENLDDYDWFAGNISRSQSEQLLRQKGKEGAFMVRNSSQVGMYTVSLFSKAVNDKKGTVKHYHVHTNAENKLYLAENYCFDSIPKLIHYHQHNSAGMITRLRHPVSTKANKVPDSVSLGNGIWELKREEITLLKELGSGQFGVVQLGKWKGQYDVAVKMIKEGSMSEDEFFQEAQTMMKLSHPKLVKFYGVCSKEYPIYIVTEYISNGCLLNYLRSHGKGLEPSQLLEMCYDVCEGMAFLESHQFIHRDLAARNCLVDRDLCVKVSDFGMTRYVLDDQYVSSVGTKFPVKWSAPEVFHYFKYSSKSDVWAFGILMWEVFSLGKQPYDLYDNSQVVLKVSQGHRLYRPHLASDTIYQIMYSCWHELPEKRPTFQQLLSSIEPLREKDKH
Chain of UniProt P14780 (whole entry, looked up): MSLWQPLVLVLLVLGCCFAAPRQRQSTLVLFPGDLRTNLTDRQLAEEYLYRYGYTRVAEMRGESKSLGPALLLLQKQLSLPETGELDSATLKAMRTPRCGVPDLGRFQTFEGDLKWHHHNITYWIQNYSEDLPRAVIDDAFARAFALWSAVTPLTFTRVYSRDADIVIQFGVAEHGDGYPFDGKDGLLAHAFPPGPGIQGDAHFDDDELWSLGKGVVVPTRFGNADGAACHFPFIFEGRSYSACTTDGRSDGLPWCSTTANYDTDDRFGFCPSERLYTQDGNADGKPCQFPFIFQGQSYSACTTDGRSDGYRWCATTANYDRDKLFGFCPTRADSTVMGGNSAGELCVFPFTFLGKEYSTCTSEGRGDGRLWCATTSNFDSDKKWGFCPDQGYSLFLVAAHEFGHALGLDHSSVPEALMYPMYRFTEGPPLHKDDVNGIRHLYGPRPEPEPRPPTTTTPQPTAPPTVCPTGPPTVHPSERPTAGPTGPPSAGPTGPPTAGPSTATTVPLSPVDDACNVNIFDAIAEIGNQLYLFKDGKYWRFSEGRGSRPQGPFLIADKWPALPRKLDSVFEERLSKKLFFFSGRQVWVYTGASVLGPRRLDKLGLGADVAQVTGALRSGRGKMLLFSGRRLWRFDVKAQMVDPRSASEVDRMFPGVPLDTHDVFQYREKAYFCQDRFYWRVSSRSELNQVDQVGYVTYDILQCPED
Chain of UniProt Q13464 (whole entry, looked up): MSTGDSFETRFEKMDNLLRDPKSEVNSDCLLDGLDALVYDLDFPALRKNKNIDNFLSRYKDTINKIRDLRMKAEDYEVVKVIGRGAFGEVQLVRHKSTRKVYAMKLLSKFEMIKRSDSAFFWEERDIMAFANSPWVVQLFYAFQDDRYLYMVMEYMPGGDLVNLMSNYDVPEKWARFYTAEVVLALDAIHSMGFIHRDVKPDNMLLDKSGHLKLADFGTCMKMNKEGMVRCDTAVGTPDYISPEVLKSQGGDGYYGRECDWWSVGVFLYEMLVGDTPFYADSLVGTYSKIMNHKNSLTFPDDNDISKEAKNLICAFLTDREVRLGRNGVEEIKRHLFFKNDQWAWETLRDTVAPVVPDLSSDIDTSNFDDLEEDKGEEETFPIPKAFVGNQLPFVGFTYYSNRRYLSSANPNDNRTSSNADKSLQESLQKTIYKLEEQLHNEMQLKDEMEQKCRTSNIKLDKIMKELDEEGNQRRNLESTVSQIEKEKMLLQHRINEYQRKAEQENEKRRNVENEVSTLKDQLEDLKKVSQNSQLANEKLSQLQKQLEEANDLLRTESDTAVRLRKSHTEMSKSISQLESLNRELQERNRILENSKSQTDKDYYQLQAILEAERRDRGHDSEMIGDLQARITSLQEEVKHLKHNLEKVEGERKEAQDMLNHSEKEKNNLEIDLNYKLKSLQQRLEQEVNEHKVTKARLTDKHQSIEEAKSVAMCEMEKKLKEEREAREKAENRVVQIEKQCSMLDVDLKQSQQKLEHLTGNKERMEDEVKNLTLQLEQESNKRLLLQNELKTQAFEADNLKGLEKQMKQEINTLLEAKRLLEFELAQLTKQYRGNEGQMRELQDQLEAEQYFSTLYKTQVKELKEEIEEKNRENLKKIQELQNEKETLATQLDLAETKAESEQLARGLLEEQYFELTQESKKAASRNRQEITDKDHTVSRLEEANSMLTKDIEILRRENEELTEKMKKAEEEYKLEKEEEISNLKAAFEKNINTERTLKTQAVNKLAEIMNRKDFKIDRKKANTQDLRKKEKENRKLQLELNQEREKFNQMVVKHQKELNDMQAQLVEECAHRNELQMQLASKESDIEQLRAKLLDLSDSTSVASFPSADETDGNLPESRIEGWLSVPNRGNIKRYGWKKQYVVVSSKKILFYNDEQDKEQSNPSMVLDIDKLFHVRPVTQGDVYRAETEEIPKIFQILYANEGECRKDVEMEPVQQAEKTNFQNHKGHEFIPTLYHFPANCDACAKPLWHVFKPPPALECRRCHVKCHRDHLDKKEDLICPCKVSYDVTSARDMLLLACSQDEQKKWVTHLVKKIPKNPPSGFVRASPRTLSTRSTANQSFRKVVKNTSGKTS
Chain of UniProt Q8N884 (whole entry, looked up): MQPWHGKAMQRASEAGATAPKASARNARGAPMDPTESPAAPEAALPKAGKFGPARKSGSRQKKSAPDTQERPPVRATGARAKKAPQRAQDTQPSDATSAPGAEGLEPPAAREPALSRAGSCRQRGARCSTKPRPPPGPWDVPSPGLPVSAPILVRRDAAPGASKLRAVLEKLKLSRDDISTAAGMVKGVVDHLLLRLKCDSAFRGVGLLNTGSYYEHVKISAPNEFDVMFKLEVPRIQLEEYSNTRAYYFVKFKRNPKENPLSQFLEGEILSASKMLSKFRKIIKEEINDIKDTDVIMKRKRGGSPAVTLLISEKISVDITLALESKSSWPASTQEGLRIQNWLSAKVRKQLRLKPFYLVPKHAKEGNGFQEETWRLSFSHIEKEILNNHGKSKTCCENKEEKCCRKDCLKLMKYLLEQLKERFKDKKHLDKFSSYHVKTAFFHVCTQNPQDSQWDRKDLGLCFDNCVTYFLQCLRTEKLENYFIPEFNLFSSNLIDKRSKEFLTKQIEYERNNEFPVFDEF

| SMILES | tested on | test | system | conditions | how to read | endpoint | result |
| --- | --- | --- | --- | --- | --- | --- | --- |
| O=C(CN1C(=O)Cc2c([nH]c3ccc(Br)cc23)-c2ccc(Cl)cc21)Nc1nncs1 | Trypanothione synthetase | enzyme activity, inhibitor, BIOMOL Green |  | 30 µM |  | inhibition | 18.8 ± 3.3% |
| CC(C)C[C@H](NC(=O)[C@@H](NC(=O)[C@@H](N)Cc1ccccc1)C(C)C)C(=O)N[C@@H](CC(=O)O)C(=O)O | MAOA | inhibitor, fluorometric |  | 410 µM |  | inhibition | 3.14% |
| CC(C)(C)OC(=O)NCCNC(=O)CN1C(=O)Cc2c([nH]c3ccc(Br)cc23)-c2ccc(Cl)cc21 | Trypanothione synthetase | enzyme activity, inhibitor, BIOMOL Green |  | 30 µM |  | inhibition | 28.3 ± 3.2% |
| CC/C(=N\NC(=O)NCc1cccc(O)c1)c1ccc(O)c(C)c1O | Proto-oncogene serine/threonine-protein kinase mos (MOS, Homo sapiens, UniProt P00540) | kinase activity |  | 0.1 µM |  | inhibition | 0.6% |
| O=C(CO)[C@@H](O)[C@H](O)[C@H](O)CO | USP51 (Homo sapiens, UniProt Q70EK9) | inhibitor |  | 1 µM, 1 h preincubation, added: Ub-AMC 250 nM |  | inhibition | 85% |
| CCCNc1cc(=O)[nH]c(=O)[nH]1 | FFAR4 | antagonist, β-arrestin recruitment | CHO cells | 10 µM |  | inhibition | 21 ± 3% |
| Cc1cc(-c2ccnc3[nH]cc(F)c23)cc(F)c1[C@@]1(O)[C@H](C)CN(C(=O)CN)C[C@@H]1C | ROCK1 (Homo sapiens, UniProt Q13464) | ATP probe binding, KiNativ | HEK293T cell lysate | 0.1 µM |  | inhibition | 16.8% |
| CC(C)C[C@H](NC(=O)C[C@H](O)[C@H](CC(C)C)NC(=O)[C@H](Cc1c[nH]cn1)NC(=O)CNC(=O)[C@@H](NC(=O)[C@H](C)NC(=O)[C@H](Cc1c[nH]c2ccccc12)NC(=O)[C@H](CCC(N)=O)NC(=O)[C@@H](Cc1ccccc1)NC(=O)COCCOCCNC(=O)CCC(C(=O)O)N1CCN(CC(=O)O)CCN(CC(=O)O)CCN(CC(=O)O)CC1)C(C)C)C(N)=O (stereo partly drawn) [lutetium-177 labelled] |  |  | BALB/c nu/nu mice, large intestine | 500 pmol, 1 h, added: PA 300 µg |  | tissue uptake | 0.6 ± 0.1 %ID/g |
| CCCCCCCCNc1cc(=O)[nH]c(=O)n1C | FFAR4 | antagonist, β-arrestin recruitment | CHO cells | 10 µM, added: 4 µM TUG-891 |  | inhibition | 25 ± 9% |
| CC[C@@]1(CC(=O)NC2CCCC2)CCCN2CCc3c([nH]c4ccccc34)[C@@H]21 | Neuropeptide S receptor, isoform B (NPSR1, Homo sapiens, UniProt Q6W5P4) | beta-arrestin recruitment, antagonist, PathHunter chemiluminescence |  | 20 µM, added: agonist at EC80 |  | inhibition | -27% |
| [2H]c1cc(C)c(NC(=O)c2cnc(Nc3cc(N4CCCCC4)nc(C)n3)s2)c(Cl)c1 | BMX (Homo sapiens, UniProt P51813) |  |  | 0.0001 µM |  | inhibition | > 50% |
| CC1=NN(c2ccc(F)cc2)C(=O)C1=NNc1ccc(S(N)(=O)=O)cc1 | Alpha-amylase | enzyme activity, inhibitor, glucose oxidase |  | 50 µg/mL, added: dextrin |  | inhibition | 8.25% |
| COc1ccc(S(=O)(=O)N(CC(=O)NO)CC(C)C)cc1 | MMP9 (Homo sapiens, UniProt P14780) | inhibitor |  | 0.1 µM |  | inhibition | 22.1 ± 0.804% |
| CC(C)NCC(O)c1ccc(O)c(O)c1 (stereo not drawn) |  |  | ventricular cardiomyocytes, C57BL/6 mouse | dose not given, 0.408 s |  | sarcomere length | 1.72 µm |
| O=C(Nc1cccc2c(=O)cc(-c3nnn[nH]3)oc12)c1ccc(OCCCCc2ccccc2)cc1 | Volume-regulated anion channel subunit LRRC8C, part LRRC8A IL1 chimera (LRRC8C, Homo sapiens, UniProt Q8TDW0, E6A) | ion current, inhibitor, whole-cell patch clamp | HCT LRRC8-/- cells | 0.1 µM, +100 mV |  | inhibition | 43.2% and 28.3% and 48.7% and 44.4% and 19.4% |
| Cn1cnc(Br)c1C1=CN(c2ncnc3[nH]cnc23)CCS1 | PRKCG (Homo sapiens, UniProt P05129) | enzyme activity |  | 0.05 µM |  | inhibition | 25.7% |
| CC(C)CNc1cc(=O)[nH]c(=O)[nH]1 | FFAR4 | antagonist, β-arrestin recruitment | CHO cells | 10 µM, added: 4 µM TUG-891 |  | inhibition | 20 ± 2% |
| CC1(C)CCC(c2ccc(Cl)cc2)=C(CN2CCN(c3ccc(C(=O)NS(=O)(=O)c4ccc(N[C@H](CCN5CCOCC5)CSc5ccccc5)c(S(=O)(=O)C(F)(F)F)c4)cc3)CC2)C1 | C2BBe1 monolayers |  |  | 50 % saturated solubility, 2 h, basolateral fractions 1-10, added: oleic acid/monoolein micelles |  | drug secreted with TRL | 7.6 ± 6.1% |
| CCN1CCN(Cc2ccc(NC(=O)c3ccc(C)c(/C=C/c4cnc5[nH]ccc5c4OC)c3)cc2C(F)(F)F)CC1 | ERN1 (Homo sapiens, UniProt O75460) |  | A-375 | 0.05 µM |  | inhibition | -11.9% |
| Cn1cc(-c2cnc3ccc(NC(=O)Nc4ccc(F)c(Br)c4)cc3n2)cn1 | TBK1 (Homo sapiens, UniProt Q9UHD2) | kinase binding, KiNativ profiling, item: Lys1 peptide | PANC-1 lysate | 10 µM |  | inhibition | 12.1% |
| CC1=NN(c2ccc(C)cc2)C(=O)C1=NNc1ccc(S(N)(=O)=O)cc1 | Alpha-amylase | enzyme activity, inhibitor, glucose oxidase |  | 200 µg/mL, added: dextrin |  | inhibition | 26.7% |

| SMILES | tested on | test | system | conditions | how to read | endpoint | result |
| --- | --- | --- | --- | --- | --- | --- | --- |
| CCN(CC)CCNC(=O)CN1C(=O)Cc2c([nH]c3ccc(Br)cc23)-c2ccc(Cl)cc21 | Trypanothione synthetase | enzyme activity, inhibitor, BIOMOL Green |  | 30 µM |  | inhibition | 16 ± 5.6% |
| CC1=NCCNC(=O)C1=NNc1ccc(S(N)(=O)=O)cc1 | Alpha-amylase | enzyme activity, inhibitor, glucose oxidase |  | 500 µg/mL, added: dextrin |  | inhibition | 15.9% |
| O=c1cc(NCCc2ccc(Br)cc2)[nH]c(=O)[nH]1 | FFAR4 | antagonist, β-arrestin recruitment | CHO cells | 10 µM, added: 4 µM TUG-891 |  | inhibition | 17 ± 3% |
| Cn1cc(-c2ccc(-c3cncc(Cl)c3N3CCC4(CCNC4=O)CC3)cc2)cn1 | COLO 205 | gene expression, microarray, item: CCL15 mRNA |  | concentration not given, 2 h | reference: untreated cells | log2 fold change | -3.27 |
| CC1=NN(c2ccc(Cl)cc2)C(=O)C1=NNc1ccc(S(N)(=O)=O)cc1 | Alpha-amylase | enzyme activity, inhibitor, glucose oxidase |  | 100 µg/mL, added: dextrin |  | inhibition | 9.02% |
| O=c1cc(NCCc2ccc(F)cc2)[nH]c(=O)[nH]1 | FFAR4 | antagonist, β-arrestin recruitment | CHO cells | 10 µM, added: 4 µM TUG-891 |  | inhibition | 11 ± 3% |
| CC1=NN(c2cccc([N+](=O)[O-])c2)C(=O)C1=NNc1ccc(S(N)(=O)=O)cc1 | Alpha-amylase | enzyme activity, inhibitor, glucose oxidase |  | 10 µg/mL, added: dextrin |  | inhibition | 5.7582 ± 0.000477% |
| NC/C(=C\F)COc1cccc(Cn2c(=S)[nH]c(=O)c3[nH]cnc32)c1 | MAOA | enzyme activity |  | 0.0002 µM |  | inhibition | 3.37% |
| COc1ccc(F)cc1C(=O)NCc1ccc(-c2nn([C@@H](C)C(F)(F)F)c(N)c2C(N)=O)cc1 | STK39 (Homo sapiens, UniProt Q9UEW8) | target engagement, competitive chemoproteomics | human PBMCs | 0.01 µM |  | inhibition | 34% |
| CC[C@@H]1[C@H](F)C(=O)N[C@@H]1COc1nccc2cc(C(N)=O)c(OC)cc12 | RPS6KA1 (Homo sapiens, UniProt Q15418) | ATP probe binding, KiNativ profiling, item: domain 2 Lys2 site | THP-1 cell lysate | 0.2 mM |  | inhibition | -12.2% |
| Cc1nn(-c2nc3c(F)cc(F)cc3s2)c(O)c1C(c1cccc(C(F)(F)F)c1)c1c(C)nn(-c2nc3c(F)cc(F)cc3s2)c1O | CGAS (Homo sapiens, UniProt Q8N884) | enzyme activity, inhibitor, pyrophosphatase-coupled |  | 200 µM, 1.5 h, added: HT-DNA |  | inhibition | 84.3% |
| O=C(NO)c1ccc(CN2CCCCc3ccccc32)c(F)c1 | ADRB1 (Homo sapiens, UniProt P08588) | radioligand binding, radioligand displacement |  | 10 µM |  | inhibition | 11.3% |
| COc1ccc(CCNc2cc(=O)[nH]c(=O)[nH]2)cc1OC | FFAR4 | antagonist, β-arrestin recruitment | CHO cells | 10 µM |  | inhibition | -1 ± 8% |
| CC(C)(C(=O)N1CCOc2c(C#N)cncc2C1)C(F)F |  |  | human, both sexes, plasma | oral, 20 mg twice daily, 14 days, multiple ascending dose | reference: day 14 over day 1 | accumulation ratio Cmax | 1.71 |
| CC1=NOC(=O)C1=NNc1ccc(S(N)(=O)=O)cc1 | Alpha-amylase | enzyme activity, inhibitor, glucose oxidase |  | 100 µg/mL, added: dextrin |  | inhibition | 14.8% |
| CC(C)C[C@H](NC(=O)C[C@H](O)[C@H](CC(C)C)NC(=O)[C@H](Cc1c[nH]cn1)NC(=O)CNC(=O)[C@@H](NC(=O)[C@H](C)NC(=O)[C@H](Cc1c[nH]c2ccccc12)NC(=O)[C@H](CCC(N)=O)NC(=O)[C@@H](Cc1ccccc1)NC(=O)COCCOCCNC(=O)CN1CCN(CC(=O)O)CCN(CC(=O)O)CCN(CC(=O)O)CC1)C(C)C)C(N)=O [lutetium-177 labelled] |  |  | female BALB/c nu/nu mice, kidneys | intravenous, 50 pmol, 24 h |  | tissue uptake | 1.1 ± 0.3 %ID/g |
| O=c1[nH]c(NCCc2ccc(Br)cc2)c(Br)c(=O)[nH]1 | FFAR4 | antagonist, β-arrestin recruitment | CHO cells | 10 µM, added: 4 µM TUG-891 |  | inhibition | 14 ± 5% |
| CC1=NN(c2cc(Cl)ccc2Cl)C(=O)C1=NNc1ccc(S(N)(=O)=O)cc1 | Alpha-amylase | enzyme activity, inhibitor, glucose oxidase |  | 500 µg/mL, added: dextrin |  | inhibition | 21.7% |
| N#Cc1ccc2c(c1)[C@H]1CCCN(C(=O)c3ccc4[nH]cnc4c3)[C@H]1C2 |  |  | human | 360 mg, day 15 | reference: baseline | ACTH level change | 2.4 pmol/L |
| CC(C)CCCCCNc1cc(=O)[nH]c(=O)[nH]1 | FFAR4 | antagonist, β-arrestin recruitment | CHO cells | 10 µM |  | inhibition | 21 ± 5% |
| CC(C)c1noc2ncc(C(=O)c3ccccc3O)cc12 | HVCN1 (Homo sapiens, UniProt Q96D96) | ion current, inhibitor, whole-cell patch clamp |  | 10 µM |  | inhibition | 0.75% and 4.22% and 3.74% and 4.12% and 2.92% |

Repeated from above:
| SMILES | tested on | test | system | conditions | how to read | endpoint | result |
| --- | --- | --- | --- | --- | --- | --- | --- |
| CC1=NCCNC(=O)C1=NNc1ccc(S(N)(=O)=O)cc1 | Alpha-amylase | enzyme activity, inhibitor, glucose oxidase |  | 500 µg/mL, added: dextrin |  | inhibition | 15.9% |
| [2H]c1cc(C)c(NC(=O)c2cnc(Nc3cc(N4CCCCC4)nc(C)n3)s2)c(Cl)c1 | BMX (Homo sapiens, UniProt P51813) |  |  | 0.0001 µM |  | inhibition | > 50% |
| O=c1[nH]c(NCCc2ccc(Br)cc2)c(Br)c(=O)[nH]1 | FFAR4 | antagonist, β-arrestin recruitment | CHO cells | 10 µM, added: 4 µM TUG-891 |  | inhibition | 14 ± 5% |
| O=c1cc(NCCc2ccc(Br)cc2)[nH]c(=O)[nH]1 | FFAR4 | antagonist, β-arrestin recruitment | CHO cells | 10 µM, added: 4 µM TUG-891 |  | inhibition | 17 ± 3% |
| CC[C@@H]1[C@H](F)C(=O)N[C@@H]1COc1nccc2cc(C(N)=O)c(OC)cc12 | RPS6KA1 (Homo sapiens, UniProt Q15418) | ATP probe binding, KiNativ profiling, item: domain 2 Lys2 site | THP-1 cell lysate | 0.2 mM |  | inhibition | -12.2% |
| Cn1cc(-c2ccc(-c3cncc(Cl)c3N3CCC4(CCNC4=O)CC3)cc2)cn1 | COLO 205 | gene expression, microarray, item: CCL15 mRNA |  | concentration not given, 2 h | reference: untreated cells | log2 fold change | -3.27 |
